Results pooled from the literature.
Each line is one published result; not all experiments were run side by side.
S1PR2: Sphingosine 1-phosphate receptor 2 (S1PR2, Homo sapiens, UniProt O95136)
UniProt O95136, sequence (whole entry, looked up): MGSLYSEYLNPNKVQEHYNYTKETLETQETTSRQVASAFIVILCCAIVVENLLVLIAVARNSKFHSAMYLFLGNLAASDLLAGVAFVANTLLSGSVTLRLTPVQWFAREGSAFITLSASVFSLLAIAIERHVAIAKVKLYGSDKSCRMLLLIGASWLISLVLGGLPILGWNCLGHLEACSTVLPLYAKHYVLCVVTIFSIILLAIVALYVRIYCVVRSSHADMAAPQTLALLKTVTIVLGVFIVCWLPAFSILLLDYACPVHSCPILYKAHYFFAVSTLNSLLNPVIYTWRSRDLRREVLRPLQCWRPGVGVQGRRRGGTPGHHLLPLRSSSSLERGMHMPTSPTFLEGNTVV
NPR2: Atrial natriuretic peptide receptor 2 (NPR2, Homo sapiens, UniProt P20594)
UniProt P20594, sequence (whole entry, looked up): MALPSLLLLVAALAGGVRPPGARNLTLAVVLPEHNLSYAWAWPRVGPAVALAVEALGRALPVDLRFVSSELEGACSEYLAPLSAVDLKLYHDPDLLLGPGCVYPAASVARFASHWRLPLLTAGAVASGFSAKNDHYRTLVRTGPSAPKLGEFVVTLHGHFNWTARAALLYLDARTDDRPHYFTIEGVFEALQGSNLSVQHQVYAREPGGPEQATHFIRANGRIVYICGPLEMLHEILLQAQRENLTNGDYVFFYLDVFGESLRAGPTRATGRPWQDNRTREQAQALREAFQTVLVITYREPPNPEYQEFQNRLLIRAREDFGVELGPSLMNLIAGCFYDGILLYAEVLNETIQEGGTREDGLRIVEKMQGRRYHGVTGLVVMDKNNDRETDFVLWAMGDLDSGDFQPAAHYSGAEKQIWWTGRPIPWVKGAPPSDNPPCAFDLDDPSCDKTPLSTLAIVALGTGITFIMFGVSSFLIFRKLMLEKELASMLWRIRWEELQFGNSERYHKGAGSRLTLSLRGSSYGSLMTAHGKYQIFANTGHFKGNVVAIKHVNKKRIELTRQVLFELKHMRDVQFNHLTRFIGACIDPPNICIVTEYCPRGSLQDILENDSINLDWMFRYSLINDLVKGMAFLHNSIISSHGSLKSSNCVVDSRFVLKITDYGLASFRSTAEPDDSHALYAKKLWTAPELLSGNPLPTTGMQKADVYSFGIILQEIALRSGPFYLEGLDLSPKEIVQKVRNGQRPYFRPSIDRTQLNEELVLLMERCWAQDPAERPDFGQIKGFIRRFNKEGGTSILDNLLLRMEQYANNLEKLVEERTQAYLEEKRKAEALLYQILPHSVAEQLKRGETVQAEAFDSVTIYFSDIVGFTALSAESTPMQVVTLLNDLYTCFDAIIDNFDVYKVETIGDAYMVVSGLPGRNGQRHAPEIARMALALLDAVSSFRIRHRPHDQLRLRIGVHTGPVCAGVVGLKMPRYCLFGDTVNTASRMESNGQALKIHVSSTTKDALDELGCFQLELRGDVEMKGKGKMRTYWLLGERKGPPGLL
Methoprene-tolerant protein with Taiman: Methoprene-tolerant protein, with Taiman (Drosophila melanogaster, UniProt O44118)
UniProt P30731, sequence (whole entry, looked up): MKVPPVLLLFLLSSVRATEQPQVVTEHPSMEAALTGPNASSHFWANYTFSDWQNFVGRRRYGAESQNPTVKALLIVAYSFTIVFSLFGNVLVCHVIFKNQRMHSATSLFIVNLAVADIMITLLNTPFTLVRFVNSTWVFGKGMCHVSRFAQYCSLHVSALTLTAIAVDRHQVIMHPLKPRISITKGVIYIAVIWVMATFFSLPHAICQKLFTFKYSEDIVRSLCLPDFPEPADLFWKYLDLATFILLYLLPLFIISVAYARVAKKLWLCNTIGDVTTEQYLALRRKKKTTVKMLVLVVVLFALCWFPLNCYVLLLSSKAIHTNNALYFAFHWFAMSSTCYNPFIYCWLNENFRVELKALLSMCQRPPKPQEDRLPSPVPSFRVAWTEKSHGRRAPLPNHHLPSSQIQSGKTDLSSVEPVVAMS
UniProt P62942, sequence (whole entry, looked up): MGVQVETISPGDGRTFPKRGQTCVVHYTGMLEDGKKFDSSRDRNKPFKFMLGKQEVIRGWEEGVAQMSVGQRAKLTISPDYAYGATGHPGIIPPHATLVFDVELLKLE
UniProt P43088, sequence (whole entry, looked up): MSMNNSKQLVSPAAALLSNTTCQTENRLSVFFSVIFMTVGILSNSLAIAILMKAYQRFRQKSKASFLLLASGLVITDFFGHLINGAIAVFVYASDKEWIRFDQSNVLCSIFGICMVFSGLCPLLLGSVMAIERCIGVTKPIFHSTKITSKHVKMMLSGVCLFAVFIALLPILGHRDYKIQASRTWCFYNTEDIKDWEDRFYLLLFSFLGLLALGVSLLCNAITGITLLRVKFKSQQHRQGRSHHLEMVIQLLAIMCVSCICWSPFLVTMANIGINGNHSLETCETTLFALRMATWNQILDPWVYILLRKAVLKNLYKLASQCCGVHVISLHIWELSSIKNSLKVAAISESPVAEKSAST
UniProt Q9Z282, sequence (whole entry, looked up): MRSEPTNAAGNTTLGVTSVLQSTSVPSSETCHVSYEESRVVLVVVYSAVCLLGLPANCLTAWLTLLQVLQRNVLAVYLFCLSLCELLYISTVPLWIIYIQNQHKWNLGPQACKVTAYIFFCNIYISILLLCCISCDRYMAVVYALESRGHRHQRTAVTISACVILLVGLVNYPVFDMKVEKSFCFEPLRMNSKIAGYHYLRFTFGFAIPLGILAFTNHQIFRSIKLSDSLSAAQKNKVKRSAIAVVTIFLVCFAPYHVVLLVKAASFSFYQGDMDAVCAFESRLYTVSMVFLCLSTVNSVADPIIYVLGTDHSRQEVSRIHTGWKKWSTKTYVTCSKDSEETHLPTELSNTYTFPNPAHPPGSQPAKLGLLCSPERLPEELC
UniProt P33766, sequence (whole entry, looked up): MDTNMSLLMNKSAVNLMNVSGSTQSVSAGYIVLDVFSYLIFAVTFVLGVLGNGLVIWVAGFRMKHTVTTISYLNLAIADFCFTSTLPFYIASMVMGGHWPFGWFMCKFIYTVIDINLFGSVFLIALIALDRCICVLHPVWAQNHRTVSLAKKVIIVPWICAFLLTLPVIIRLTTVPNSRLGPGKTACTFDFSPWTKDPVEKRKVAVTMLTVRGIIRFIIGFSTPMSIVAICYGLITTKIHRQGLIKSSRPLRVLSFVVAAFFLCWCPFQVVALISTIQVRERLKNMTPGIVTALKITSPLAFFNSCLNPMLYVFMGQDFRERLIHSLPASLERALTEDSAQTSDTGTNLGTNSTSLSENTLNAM
UniProt O75762, sequence (whole entry, looked up): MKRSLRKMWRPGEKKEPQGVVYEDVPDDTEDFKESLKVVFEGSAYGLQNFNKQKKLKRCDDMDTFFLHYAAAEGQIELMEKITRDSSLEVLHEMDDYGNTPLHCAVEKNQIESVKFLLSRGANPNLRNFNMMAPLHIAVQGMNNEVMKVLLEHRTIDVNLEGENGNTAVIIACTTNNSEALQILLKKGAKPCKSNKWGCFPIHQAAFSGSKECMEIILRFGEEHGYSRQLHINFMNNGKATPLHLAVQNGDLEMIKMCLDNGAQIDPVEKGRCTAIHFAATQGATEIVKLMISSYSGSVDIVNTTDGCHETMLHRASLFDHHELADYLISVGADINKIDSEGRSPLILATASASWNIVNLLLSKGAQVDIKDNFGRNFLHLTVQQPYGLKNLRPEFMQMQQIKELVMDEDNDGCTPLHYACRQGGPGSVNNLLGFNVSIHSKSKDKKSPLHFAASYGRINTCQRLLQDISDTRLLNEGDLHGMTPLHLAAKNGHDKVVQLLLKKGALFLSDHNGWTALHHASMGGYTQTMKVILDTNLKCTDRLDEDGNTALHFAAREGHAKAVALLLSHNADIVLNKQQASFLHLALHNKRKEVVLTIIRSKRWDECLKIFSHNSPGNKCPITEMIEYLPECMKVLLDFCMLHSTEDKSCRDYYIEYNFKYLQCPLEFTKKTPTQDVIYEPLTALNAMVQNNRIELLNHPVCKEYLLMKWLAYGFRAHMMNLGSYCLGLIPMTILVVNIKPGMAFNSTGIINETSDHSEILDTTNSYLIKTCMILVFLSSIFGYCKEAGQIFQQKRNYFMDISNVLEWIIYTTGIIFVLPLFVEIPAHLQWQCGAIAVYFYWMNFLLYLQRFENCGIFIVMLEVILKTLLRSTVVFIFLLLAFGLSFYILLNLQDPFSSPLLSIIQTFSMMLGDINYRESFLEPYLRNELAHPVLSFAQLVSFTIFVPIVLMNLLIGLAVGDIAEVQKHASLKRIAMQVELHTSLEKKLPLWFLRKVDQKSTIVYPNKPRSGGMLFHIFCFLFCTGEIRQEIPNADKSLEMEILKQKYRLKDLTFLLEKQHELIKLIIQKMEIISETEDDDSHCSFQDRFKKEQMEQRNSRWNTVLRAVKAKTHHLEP
UniProt P33032, sequence (whole entry, looked up): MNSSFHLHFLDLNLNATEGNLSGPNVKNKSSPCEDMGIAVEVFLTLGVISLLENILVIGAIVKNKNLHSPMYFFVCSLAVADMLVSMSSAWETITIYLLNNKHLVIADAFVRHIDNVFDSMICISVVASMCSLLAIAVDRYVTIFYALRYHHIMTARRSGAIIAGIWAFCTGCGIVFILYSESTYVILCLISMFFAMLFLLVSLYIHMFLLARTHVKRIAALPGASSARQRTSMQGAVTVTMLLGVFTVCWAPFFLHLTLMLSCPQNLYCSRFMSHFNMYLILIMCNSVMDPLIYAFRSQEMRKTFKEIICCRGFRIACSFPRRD

O=C(O)/C=C/c1cccc(NC(=O)c2cc(-c3cccc(F)c3)ccc2F)c1
EC50 (Prostaglandin F2-alpha receptor (PTGFR, Homo sapiens, UniProt P43088); calcium signal, agonist, fluorescence): > 10 µM

Cc1cc(C(=O)Cn2cc(C(F)(F)F)ccc2=O)c(C)n1-c1ccccc1
EC50 (S1PR2; reporter gene, agonist): > 10 µM

N#CCCN1CCN(C(=S)c2ccc(-c3cc(Cl)ccc3Cl)o2)CC1
EC50 (NPR2; cGMP production, activator; HEK293 expressing GC-B; together with: CNP at EC20): 0.74 µM

O=C(CNC(=O)c1ccc(O)c(-c2ccc(Cl)c(Cl)c2)c1)NCCc1ccc(Cl)c(Cl)c1
EC50 (Probable G-protein coupled receptor 132 (Gpr132, Mus musculus, UniProt Q9Z282); β-arrestin recruitment, agonist, PathHunter; cell-based): 0.0316 µM

COC(=O)c1ccc(N2CCN(C(=O)C3CC3)C(C)C2)cc1 (centres unmarked)
EC50 (Methoprene-tolerant protein with Taiman; reporter gene, agonist; HEK293T expressing Drosophila Met/Tai; 24 h): 0.871 µM

N=C(N)NCCC[C@H](NC(=O)[C@H](CC(=O)O)NC(=O)[C@@H]1CSCCCC(=O)NCC(=O)N[C@@H](Cc2c[nH]cn2)C(=O)N[C@H](Cc2ccccc2)C(=O)N[C@@H](CCCNC(=N)N)C(=O)N[C@@H](Cc2c[nH]c3ccccc23)C(=O)N1)C(=O)N[C@@H](Cc1ccccc1)C(=O)NCC(N)=O
EC50 (Melanocortin receptor 5 (MC5R, Homo sapiens, UniProt P33032); cAMP, agonist): 0.873 µM

O=C(NC[C@@H](Cc1ccccc1)N1CCC(O)(C(F)(F)F)CC1)C1(c2ccc(Cl)cc2)CCCC1
EC50 (Transient receptor potential cation channel subfamily A member 1 (TRPA1, Homo sapiens, UniProt O75762); calcium signal, agonist): 0.026 µM

N#CCCN1CCN(C(=S)c2ccc(-c3ccccc3Cl)o2)CC1
EC50 (NPR2; cGMP production, positive allosteric modulator, cGMP HTRF; HEK293 expressing human GC-B; together with: CNP at EC30): 2.33 µM

CCCCCCCOc1ccc(CC[C@](N)(CO)COP(=O)(O)O)cc1C(F)(F)F
EC50 (S1PR2; calcium signal, agonist): > 10 µM

C=C1CCN2C(=O)COc3cccc(c3)C(CCc3ccc(OC)c(OC)c3)OC(=O)C3CCCCN3C(=O)C(=O)C(C)(C)COC(=O)C(CC(C)C)NC(=O)C2C1 (centres unmarked)
EC50 (Peptidyl-prolyl cis-trans isomerase FKBP1A (FKBP1A, Homo sapiens, UniProt P62942); binding, competitor, TR-FRET; together with: FITC-SLF tracer): 0.56 µM

O=C(Nc1ccc2c(c1)OCO2)c1ccc(OC(F)C(F)(F)C(F)(F)F)cc1 (centres unmarked)
EC50 (Methoprene-tolerant protein with Taiman; reporter gene, agonist; HEK293T expressing Drosophila Met/Tai; 24 h): > 100 µM

N#CCN1CCN(C(=S)c2ccc(-c3cc(Cl)ccc3Cl)o2)CC1
EC50 (NPR2; cGMP production, positive allosteric modulator, cGMP HTRF; HEK293 expressing human GC-B; together with: CNP at EC30): 2.34 µM

CC(C)C[C@H](NC(=O)[C@H](Cc1ccccc1)NC(=O)c1cnccn1)B(O)O
EC50 (Proteasome subunits (Trypanosoma cruzi, UniProt Q4CU77+Q4D8U7); trypsin-like activity, inhibitor; wild-type proteasome, PSMB4 wild type): 1.7 µM

CC(=O)N1CCN(C(=S)c2ccc(-c3cc(Cl)ccc3Cl)o2)CC1
EC50 (NPR2; cGMP production, positive allosteric modulator, cGMP HTRF; HEK293 expressing human GC-B; together with: CNP at EC30): 2.9 µM

CC(C)C[C@H](NC(=O)[C@H](C)NC(=O)CNC(=O)[C@H](CC(C)C)NC(=O)[C@@H](NC(=O)[C@H](CC(N)=O)NC(=O)[C@H](CCC(=O)O)NC(=O)[C@@H]1CCCN1C(=O)[C@@H]1CCCN1C(=O)[C@@H](NC(=O)[C@H](CCC(=O)O)NC(=O)[C@@H]1CCCN1C(=O)CNC(=O)[C@H](CC(C)C)NC(=O)[C@H](CC(=O)O)NC(=O)[C@H](CCC(N)=O)NC(=O)[C@H](CC(=O)O)NC(=O)[C@@H](NC(=O)[C@@H](N)CO)C(C)C)C(C)C)C(C)C)C(=O)N[C@@H](CC(C)C)C(=O)N[C@@H](CCCNC(=N)N)C(=O)N[C@H](C(=O)O)C(C)C
EC50 (G-protein coupled receptor 83 (Mus musculus, UniProt P30731); GTPγS binding, agonist, radiometric; cell membranes): ~0.0002 µM

FCCN1CCN(C(=S)c2ccc(-c3cc(Cl)ccc3Cl)o2)CC1
EC50 (NPR2; cGMP production, positive allosteric modulator, cGMP HTRF; HEK293 expressing human GC-B; together with: CNP at EC30): > 8 µM

CC(C)C[C@H](NC(=O)[C@@H](N)CCCCN)C(=O)N[C@H](C(=O)N[C@@H](Cc1ccccc1)C(=O)N[C@@H](Cc1ccccc1)C(=O)N[C@@H](C)C(=O)N[C@@H](CCC(=O)O)C(=O)O)C(C)C
EC50 (fMet-Leu-Phe receptor (Mus musculus, UniProt P33766); calcium mobilisation, agonist, FLIPR Fluo-4; HEK-293T with Gα16): 4.1 µM

Excerpt of the above:
O=C(Nc1ccc2c(c1)OCO2)c1ccc(OC(F)C(F)(F)C(F)(F)F)cc1 (centres unmarked)
EC50 (Methoprene-tolerant protein with Taiman; reporter gene, agonist; HEK293T expressing Drosophila Met/Tai; 24 h): > 100 µM

C=C1CCN2C(=O)COc3cccc(c3)C(CCc3ccc(OC)c(OC)c3)OC(=O)C3CCCCN3C(=O)C(=O)C(C)(C)COC(=O)C(CC(C)C)NC(=O)C2C1 (centres unmarked)
EC50 (Peptidyl-prolyl cis-trans isomerase FKBP1A (FKBP1A, Homo sapiens, UniProt P62942); binding, competitor, TR-FRET; together with: FITC-SLF tracer): 0.56 µM
